# Experimental data of several laboratories.
# Lines come from different studies, so protocols differ. ± marks the error that the study gave.
SMILES,test,test system,conditions,measurement,result
N=C(N)NCCC[C@@H]1NC(=O)[C@H](CCCCNC(=O)CCC(NC(=S)Nc2ccc(CC3CN(CC(=O)O)CCN(CC(=O)O)CCN(CC(=O)O)CCN3CC(=O)O)cc2)C(=O)NCCCC[C@@H]2NC(=O)[C@@H](Cc3ccc(O)cc3)NC(=O)[C@H](CC(=O)O)NC(=O)CNC(=O)[C@H](CCCNC(=N)N)NC2=O)NC(=O)[C@@H](Cc2ccc(O)cc2)NC(=O)[C@H](CC(=O)O)NC(=O)CNC1=O (some centres unmarked) [scandium-44 labelled],PET imaging ROI,"female athymic nude mice, U-87 MG xenograft, liver","intravenous, 2 h",tissue uptake,1.55 ± 0.53 %ID/g
CC(=O)N[C@@H](CC(C)C)C(=O)N[C@H](C(=O)N[C@@H](Cc1ccccc1)C(=O)N[C@]1(C)CCCCCC/C=C/CCC[C@@](C)(C(=O)N[C@@H](C)C(=O)N[C@@H](C)C(=O)N[C@@H](C)C(=O)N[C@@H](C)C(=O)N[C@@H](C)C(=O)N[C@H](C)C(N)=O)NC(=O)[C@H](CC(C)C)NC(=O)[C@H](CCCCNC(=O)CCNC(=O)C[C@@H]2N=C(c3ccc(Cl)cc3)c3c(sc(C)c3C)-n3c(C)nnc32)NC(=O)[C@H](C)NC(=O)[C@H](Cc2c[nH]c3ccccc23)NC(=O)[C@H](Cc2ccc(O)cc2)NC(=O)[C@H](C)NC1=O)[C@@H](C)O,,"C57BL/6 mouse, blood","intravenous, 3 mg/kg twice weekly, 2 weeks",lymphocytes,75.3%
CCCC[C@H](NC(=O)CN1CCC(NC(=S)Nc2ccc(C[C@H]3CN(CC(N)=O)CCN(CC(N)=O)CCN(CC(N)=O)CCN3CC(N)=O)cc2)CC1)C(=O)N[C@H]1CC(=O)NCCCC[C@@H](C(N)=O)NC(=O)[C@H](Cc2c[nH]c3ccccc23)NC(=O)[C@H](CCCNC(=N)N)NC(=O)[C@@H](Cc2ccccc2)NC(=O)[C@H](Cc2c[nH]cn2)NC1=O [lead-203 labelled],SPECT/CT,"male C57BL/6J mice, B16-F10 tumour, liver","intravenous, 20 pmol, 2 h, 203Pb-labelled",SUVmean,7.51 SUV
CC[C@H](C)[C@@H]([C@@H](CC(=O)N1CCC[C@H]1[C@H](OC)[C@@H](C)C(=O)N[C@H](C)[C@@H](O)c1ccccc1)OC)N(C)C(=O)[C@@H](NC(=O)[C@H](C(C)C)N(C)C(=O)OCc1ccc(NC(=O)[C@H](CCCNC(N)=O)NC(=O)[C@@H](NC(=O)CCCCCN2C(=O)CC(SC[C@H](NC(=O)[C@H](CC(=O)O)NC(=O)[C@H](Cc3ccc(O)cc3)NC(=O)[C@H](Cc3c[nH]c4ccccc34)NC(=O)[C@@H](N)CCCNC(=N)N)C(=O)O)C2=O)C(C)C)cc1)C(C)C (some centres unmarked),,"C57BL/6 mouse, healthy, heart","intraperitoneal, 2.5 mg/kg, 24 h",concentration,not detected
CCCC[C@H](NC(=O)CN1CCC(NC(=O)CN2CCN(CC(N)=O)CCN(CC(N)=O)CCN(CC(N)=O)CC2)CC1)C(=O)N[C@H]1CC(=O)NCCCC[C@@H](C(N)=O)NC(=O)[C@H](Cc2c[nH]c3ccccc23)NC(=O)[C@H](CCCNC(=N)N)NC(=O)[C@@H](Cc2ccccc2)NC(=O)[C@H](Cc2c[nH]cn2)NC1=O [lead-203 labelled],SPECT/CT,"male C57BL/6J mice, B16-F10 tumour, liver","intravenous, 20 pmol, 2 h, 203Pb-labelled",SUVmean,2.02 SUV
CSCC[C@@H]1NC(=O)[C@@H]2CCCN2C(=O)[C@H](C(C)C)NC(=O)[C@@H](NC(=S)Nc2ccc(CC3CN(CC(=O)O)CCN(CC(=O)O)CCN3CC(=O)O)cc2)CSSC[C@@H](C(=O)O)NC(=O)[C@H](C)NC(=O)[C@H](CCCNC(=N)N)NC(=O)[C@H](Cc2ccc(O)cc2)NC(=O)[C@H]([C@@H](C)O)NC1=O (some centres unmarked) [gallium-68 labelled],PET imaging,mouse bearing B16-F10 tumour,"intravenous, 0.5 h",tumour uptake,0.9 ± 0.06 %ID/g
CC(C)C[C@H](NC(=O)[C@@H](N)Cc1ccccc1)C(=O)N[C@@H](C)C(=O)N[C@H]1CSCc2cccc(n2)CSC[C@@H](C(=O)N[C@H](C(=O)NCC(=O)N[C@@H](CO)C(=O)N[C@@H](Cc2c[nH]c3ccccc23)C(=O)N[C@@H](CCCCNC(=O)CN2CCN(CC(=O)O)CCN(CC(=O)O)CCN(CC(=O)O)CC2)C(N)=O)[C@@H](C)O)NC(=O)[C@H](Cc2c[nH]cn2)NC(=O)[C@H]([C@@H](C)O)NC(=O)[C@H](CCC(=O)O)NC(=O)[C@@H]2CCCN2C1=O [gallium-68 labelled],PET/CT imaging,"BALB/c mouse, male, A-375 tumour, tumour","iv, 3.7 MBq, 1 h",tumour uptake,2.1 %ID/g
Cc1cc(O)cc(C)c1C[C@H](N)C(=O)N[C@H](C)C(=O)N[C@@H](Cc1ccccc1)C(=O)N[C@@H](CCCN)C(=O)NCCCCCC(=O)N[C@@H](CCCCNC(=O)CN1CCN(CC(=O)O)CCN(CC(=O)O)CCN(CC(=O)O)CC1)C(N)=O [indium-111 labelled],,CD-1 mouse plasma,"30 min, 37 °C",unbound fraction,0.686

# Repeated from above:
SMILES,test,test system,conditions,measurement,result
CSCC[C@@H]1NC(=O)[C@@H]2CCCN2C(=O)[C@H](C(C)C)NC(=O)[C@@H](NC(=S)Nc2ccc(CC3CN(CC(=O)O)CCN(CC(=O)O)CCN3CC(=O)O)cc2)CSSC[C@@H](C(=O)O)NC(=O)[C@H](C)NC(=O)[C@H](CCCNC(=N)N)NC(=O)[C@H](Cc2ccc(O)cc2)NC(=O)[C@H]([C@@H](C)O)NC1=O (some centres unmarked) [gallium-68 labelled],PET imaging,mouse bearing B16-F10 tumour,"intravenous, 0.5 h",tumour uptake,0.9 ± 0.06 %ID/g
